Assay results gathered from unrelated publications.
Each numbered part is a random draw from the data of one study; scales do not carry over between parts.
Chain of UniProt O00444 (whole entry, looked up): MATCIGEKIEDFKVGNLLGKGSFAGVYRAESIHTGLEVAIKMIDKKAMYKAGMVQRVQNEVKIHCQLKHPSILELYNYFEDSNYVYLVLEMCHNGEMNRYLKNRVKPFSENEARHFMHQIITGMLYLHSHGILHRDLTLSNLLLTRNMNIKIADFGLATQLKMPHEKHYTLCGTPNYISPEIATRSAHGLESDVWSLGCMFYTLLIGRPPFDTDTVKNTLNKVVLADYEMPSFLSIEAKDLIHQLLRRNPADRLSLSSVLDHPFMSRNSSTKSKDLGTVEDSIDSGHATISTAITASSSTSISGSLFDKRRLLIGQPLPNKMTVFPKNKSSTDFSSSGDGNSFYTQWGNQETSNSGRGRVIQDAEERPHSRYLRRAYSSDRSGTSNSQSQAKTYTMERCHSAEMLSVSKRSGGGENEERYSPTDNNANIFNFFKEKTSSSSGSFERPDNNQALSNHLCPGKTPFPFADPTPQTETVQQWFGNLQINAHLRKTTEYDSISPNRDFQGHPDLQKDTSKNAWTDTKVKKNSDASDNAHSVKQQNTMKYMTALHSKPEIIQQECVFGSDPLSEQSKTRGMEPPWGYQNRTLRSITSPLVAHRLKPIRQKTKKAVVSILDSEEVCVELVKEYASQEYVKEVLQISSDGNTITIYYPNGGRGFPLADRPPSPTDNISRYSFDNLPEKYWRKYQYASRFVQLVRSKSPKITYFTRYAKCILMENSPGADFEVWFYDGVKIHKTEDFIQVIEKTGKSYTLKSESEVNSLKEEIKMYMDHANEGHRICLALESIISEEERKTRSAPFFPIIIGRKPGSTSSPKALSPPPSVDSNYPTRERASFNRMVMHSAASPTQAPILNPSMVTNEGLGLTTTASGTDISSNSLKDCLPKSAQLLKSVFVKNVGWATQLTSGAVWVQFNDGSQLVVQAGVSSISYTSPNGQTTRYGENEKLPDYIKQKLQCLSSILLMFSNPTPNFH
Chain of UniProt Q92772 (whole entry, looked up): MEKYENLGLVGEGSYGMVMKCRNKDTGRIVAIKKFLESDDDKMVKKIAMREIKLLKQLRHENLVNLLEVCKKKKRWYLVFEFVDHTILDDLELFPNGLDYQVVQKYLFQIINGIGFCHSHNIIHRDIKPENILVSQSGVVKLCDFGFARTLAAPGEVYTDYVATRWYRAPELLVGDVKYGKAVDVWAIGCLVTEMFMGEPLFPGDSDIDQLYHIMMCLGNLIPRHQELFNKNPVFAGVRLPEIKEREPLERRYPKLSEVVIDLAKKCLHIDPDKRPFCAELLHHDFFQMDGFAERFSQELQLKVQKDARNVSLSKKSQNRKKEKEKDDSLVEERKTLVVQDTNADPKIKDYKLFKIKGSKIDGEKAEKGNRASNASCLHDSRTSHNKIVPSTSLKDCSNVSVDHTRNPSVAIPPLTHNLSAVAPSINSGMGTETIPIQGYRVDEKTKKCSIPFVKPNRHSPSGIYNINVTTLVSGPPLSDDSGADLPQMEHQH
Chain of UniProt P29323 (whole entry, looked up): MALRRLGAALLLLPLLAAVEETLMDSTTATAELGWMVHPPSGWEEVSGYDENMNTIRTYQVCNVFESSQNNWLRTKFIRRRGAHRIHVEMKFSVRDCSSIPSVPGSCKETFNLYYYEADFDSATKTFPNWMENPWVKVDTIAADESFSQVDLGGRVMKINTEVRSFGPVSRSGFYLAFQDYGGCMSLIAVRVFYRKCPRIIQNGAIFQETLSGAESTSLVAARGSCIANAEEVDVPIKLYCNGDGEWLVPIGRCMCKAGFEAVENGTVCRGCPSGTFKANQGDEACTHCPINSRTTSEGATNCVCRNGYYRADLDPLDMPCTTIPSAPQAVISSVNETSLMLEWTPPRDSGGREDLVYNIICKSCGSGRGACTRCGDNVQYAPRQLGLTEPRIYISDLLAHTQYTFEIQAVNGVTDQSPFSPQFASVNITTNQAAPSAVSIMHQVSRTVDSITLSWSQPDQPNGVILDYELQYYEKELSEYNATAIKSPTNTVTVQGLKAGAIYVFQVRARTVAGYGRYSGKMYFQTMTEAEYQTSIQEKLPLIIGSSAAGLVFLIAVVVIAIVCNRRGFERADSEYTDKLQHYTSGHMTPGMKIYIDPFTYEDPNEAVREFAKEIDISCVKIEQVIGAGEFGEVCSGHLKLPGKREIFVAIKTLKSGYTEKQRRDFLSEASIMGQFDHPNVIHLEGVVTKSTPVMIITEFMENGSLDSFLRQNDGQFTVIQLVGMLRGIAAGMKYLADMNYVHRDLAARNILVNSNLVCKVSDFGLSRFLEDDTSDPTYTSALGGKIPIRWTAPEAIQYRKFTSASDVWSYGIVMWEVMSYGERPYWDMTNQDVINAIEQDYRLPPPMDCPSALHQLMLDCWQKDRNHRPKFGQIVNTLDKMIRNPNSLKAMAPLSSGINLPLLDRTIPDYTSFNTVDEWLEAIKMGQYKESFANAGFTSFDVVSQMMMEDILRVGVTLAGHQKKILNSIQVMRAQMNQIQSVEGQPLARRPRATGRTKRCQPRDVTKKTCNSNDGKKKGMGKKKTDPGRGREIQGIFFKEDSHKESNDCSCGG
Chain of UniProt P54753 (whole entry, looked up): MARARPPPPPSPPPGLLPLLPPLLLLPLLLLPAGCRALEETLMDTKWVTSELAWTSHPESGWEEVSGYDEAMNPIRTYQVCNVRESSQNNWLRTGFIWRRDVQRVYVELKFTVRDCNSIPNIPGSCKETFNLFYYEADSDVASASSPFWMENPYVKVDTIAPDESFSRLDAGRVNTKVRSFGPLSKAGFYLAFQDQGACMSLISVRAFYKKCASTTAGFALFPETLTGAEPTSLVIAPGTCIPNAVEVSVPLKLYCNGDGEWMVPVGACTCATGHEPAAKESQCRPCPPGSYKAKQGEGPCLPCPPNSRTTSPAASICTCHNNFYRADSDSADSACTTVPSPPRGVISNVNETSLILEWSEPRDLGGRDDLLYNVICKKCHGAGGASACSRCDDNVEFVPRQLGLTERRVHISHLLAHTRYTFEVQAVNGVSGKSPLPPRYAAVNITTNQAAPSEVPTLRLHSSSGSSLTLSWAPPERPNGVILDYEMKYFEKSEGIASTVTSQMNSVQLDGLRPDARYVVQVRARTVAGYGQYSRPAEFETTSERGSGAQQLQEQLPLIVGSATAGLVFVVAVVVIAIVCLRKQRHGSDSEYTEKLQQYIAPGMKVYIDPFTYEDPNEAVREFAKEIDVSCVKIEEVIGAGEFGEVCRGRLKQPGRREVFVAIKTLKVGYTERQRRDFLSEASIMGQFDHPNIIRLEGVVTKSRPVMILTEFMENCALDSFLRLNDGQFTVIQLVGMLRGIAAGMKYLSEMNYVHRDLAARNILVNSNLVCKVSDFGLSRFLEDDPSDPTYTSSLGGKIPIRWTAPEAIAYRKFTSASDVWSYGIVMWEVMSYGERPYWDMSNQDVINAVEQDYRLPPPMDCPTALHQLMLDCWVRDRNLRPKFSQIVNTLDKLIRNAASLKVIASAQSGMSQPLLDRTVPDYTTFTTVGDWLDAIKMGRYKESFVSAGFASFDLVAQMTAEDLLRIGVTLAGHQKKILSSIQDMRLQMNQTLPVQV
Chain of UniProt P15056 (whole entry, looked up): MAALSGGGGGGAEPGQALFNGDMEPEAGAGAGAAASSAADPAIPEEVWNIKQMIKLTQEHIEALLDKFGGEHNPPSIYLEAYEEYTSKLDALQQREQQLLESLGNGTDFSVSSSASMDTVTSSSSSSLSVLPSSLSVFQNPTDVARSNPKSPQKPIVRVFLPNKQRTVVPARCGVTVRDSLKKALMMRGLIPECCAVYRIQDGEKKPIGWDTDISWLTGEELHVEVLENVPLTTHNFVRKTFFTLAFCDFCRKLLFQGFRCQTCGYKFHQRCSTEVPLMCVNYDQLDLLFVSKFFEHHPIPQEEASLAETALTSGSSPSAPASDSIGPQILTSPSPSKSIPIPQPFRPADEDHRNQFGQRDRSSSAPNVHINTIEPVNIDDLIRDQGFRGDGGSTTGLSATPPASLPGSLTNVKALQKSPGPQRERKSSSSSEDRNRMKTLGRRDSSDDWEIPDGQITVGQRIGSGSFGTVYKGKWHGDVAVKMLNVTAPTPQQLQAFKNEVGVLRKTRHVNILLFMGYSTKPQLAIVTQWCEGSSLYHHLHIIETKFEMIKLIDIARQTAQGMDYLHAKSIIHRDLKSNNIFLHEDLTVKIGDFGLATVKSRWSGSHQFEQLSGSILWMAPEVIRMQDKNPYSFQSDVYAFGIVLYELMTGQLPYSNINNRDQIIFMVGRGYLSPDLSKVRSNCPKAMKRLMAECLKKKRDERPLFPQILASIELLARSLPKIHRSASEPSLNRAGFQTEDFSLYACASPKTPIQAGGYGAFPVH
Chain of UniProt Q07002 (whole entry, looked up): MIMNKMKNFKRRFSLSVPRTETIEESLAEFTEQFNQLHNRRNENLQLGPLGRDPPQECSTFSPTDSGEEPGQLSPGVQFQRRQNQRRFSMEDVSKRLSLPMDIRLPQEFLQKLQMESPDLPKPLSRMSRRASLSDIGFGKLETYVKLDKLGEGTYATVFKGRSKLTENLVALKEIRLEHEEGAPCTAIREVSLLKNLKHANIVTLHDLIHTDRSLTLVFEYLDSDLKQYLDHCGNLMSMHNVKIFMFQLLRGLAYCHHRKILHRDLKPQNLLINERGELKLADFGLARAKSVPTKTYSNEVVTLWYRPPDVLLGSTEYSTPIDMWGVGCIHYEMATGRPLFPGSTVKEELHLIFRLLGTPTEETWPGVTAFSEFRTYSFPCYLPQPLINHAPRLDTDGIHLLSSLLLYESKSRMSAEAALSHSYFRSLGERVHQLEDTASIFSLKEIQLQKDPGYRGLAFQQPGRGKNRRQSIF

Set 1 — cell line: Huh-7; concentration: 10 µM; time: 24 h
SMILES	viability [%]
CCCCC1=NC2(CCCC2)C(=O)N1Cc1ccc(-c2ccccc2-c2nnn[nH]2)cc1	96.3
CC1(C)O[C@@H]2C[C@H]3[C@@H]4CCC5=CC(=O)C=C[C@]5(C)[C@@]4(F)[C@@H](O)C[C@]3(C)[C@]2(C(=O)CO)O1	96.6
CS(=O)(=O)c1ccc([C@@H](O)[C@@H](CF)NC(=O)C(Cl)Cl)cc1	97.5
CN(C)CCC(c1ccc(Br)cc1)c1ccccn1 (stereo not shown)	99.3
C[C@H]1O[C@H](O[C@H]2[C@H](O)[C@@H](O)[C@@H](O[C@H]3[C@H](O)[C@@H](O)C(O)O[C@@H]3CO)O[C@@H]2CO)[C@H](O)[C@@H](O)[C@@H]1N[C@H]1C=C(CO)[C@@H](O)[C@H](O)[C@H]1O (stereo partly shown)	99.6
CC[C@@H](CO)NCCN[C@@H](CC)CO	98.6
C[C@]12C=CC(=O)C=C1CC[C@@H]1[C@@H]2[C@@H](O)C[C@@]2(C)[C@H]1CC[C@]2(O)C(=O)COP(=O)(O)O	93.9
Cc1ccnc(NS(=O)(=O)c2ccc(N)cc2)n1	97.1
CCCCC1C(=O)N(c2ccccc2)N(c2ccccc2)C1=O	96.7
Clc1ccc(C(Cn2ccnc2)OCc2ccsc2Cl)c(Cl)c1 (stereo not shown)	81.7

Set 2 — effect on: enzyme activity; action: inhibitor; concentration: 0.5 µM; baseline: control
Target: Cyclin-dependent kinase 4, with cyclin D1 (CDK4, Homo sapiens, UniProt P11802)
Chain of UniProt P11802 (whole entry, looked up): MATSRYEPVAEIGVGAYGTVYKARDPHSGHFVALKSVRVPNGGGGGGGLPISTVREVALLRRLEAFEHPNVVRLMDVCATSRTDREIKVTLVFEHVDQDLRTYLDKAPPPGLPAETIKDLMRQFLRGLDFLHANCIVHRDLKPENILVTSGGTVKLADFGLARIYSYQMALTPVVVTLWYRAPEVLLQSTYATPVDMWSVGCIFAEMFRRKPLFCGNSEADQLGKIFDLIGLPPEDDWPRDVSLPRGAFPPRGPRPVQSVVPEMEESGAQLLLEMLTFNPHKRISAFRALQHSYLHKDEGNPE
SMILES	remaining activity [%]
O=C1NC(=O)C(c2cn(CCCn3ccnc3)c3ccccc23)=C1Nc1ccccc1	99.1
O=C(CCCc1ccc(-c2ccccc2F)cc1)Nc1ccc(O)cc1	102
O=S(=O)(c1cccc2cnccc12)N1CCCNCC1	92.2
O=c1c2ccccc2[nH]c(=S)n1CCN1CCC(=C(c2ccc(F)cc2)c2ccc(F)cc2)CC1	99.6
Cc1ccc(Nc2nccc(N(C)c3ccc4c(C)n(C)nc4c3)n2)cc1S(N)(=O)=O	88.4
N#CC(C#N)=C(N)/C(C#N)=C/c1ccc(O)cc1	100
COc1ccc(CNC(=O)Nc2ncc([N+](=O)[O-])s2)cc1	97.3
O=C(Nc1cccc(Nc2cc(Nc3cccc(C(F)(F)F)c3)ncn2)c1)C1CC1	103
Cc1ccc(NC(=O)c2ccc(CN3CCN(C)CC3)cc2)cc1Nc1nc(-c2cccnc2)cs1	94.1
CNC(=O)c1cc(Oc2ccc(NC(=O)Nc3ccc(Cl)c(C(F)(F)F)c3)cc2)ccn1	96.2
NCCNc1ncc(C(N)=O)c(Nc2cccc(C(F)(F)F)c2)n1	108
Cn1c2ccccc2c2c3c(c4c5ccccc5n(CCC#N)c4c21)CNC3=O	27.5
CCOC(=O)c1c(C)[nH]c(/C=C2\C(=O)Nc3ccccc32)c1C	103
OCC(O)CCON=C1C(c2c(O)[nH]c3ccccc23)=Nc2ccccc21 (stereo not shown)	96.4
CO[C@H]1C[C@@H]2CC[C@@H](C)[C@@](O)(O2)C(=O)C(=O)N2CCCC[C@H]2C(=O)O[C@H]([C@H](C)C[C@@H]2CC[C@@H](O)[C@H](OC)C2)CC(=O)[C@H](C)/C=C(\C)[C@@H](O)[C@@H](OC)C(=O)[C@H](C)C[C@H](C)/C=C/C=C/C=C/1C	115

Set 3 — effect on: cell-free assay; technique: competition with immobilised ligand; concentration: 1 µM
Structure (SMILES): O=C(NCc1ncc(C(F)(F)F)cc1Cl)c1ccc2c(c1)C1(CCS(=O)(=O)CC1)[C@@H](C1CC1)N2S(=O)(=O)c1ccc(F)cc1
target	remaining binding [%]
Tyrosine-protein kinase ABL1, non-phosphorylated (ABL1, Homo sapiens, UniProt P00519, T315I)	72
Tyrosine-protein kinase ABL1, phosphorylated (ABL1, Homo sapiens, UniProt P00519, H396P)	83
EGFR (Homo sapiens, UniProt P00533, T790M)	100
MAP3K9 (Homo sapiens, UniProt P80192)	77
TAOK3 (Homo sapiens, UniProt Q9H2K8)	80
AKT3 (Homo sapiens, UniProt Q9Y243)	86
MAP3K2 (Homo sapiens, UniProt Q9Y2U5)	88
CDK18 (Homo sapiens, UniProt Q07002)	100
PLK4 (Homo sapiens, UniProt O00444)	92
KIT (Homo sapiens, UniProt P10721, V559D/V654A)	68
Ribosomal protein S6 kinase alpha-5, N-terminal kinase domain (RPS6KA5, Homo sapiens, UniProt O75582)	100
CDKL2 (Homo sapiens, UniProt Q92772)	100
FLT3 (Homo sapiens, UniProt P36888, D835V)	76

Set 4 — concentration: 1 µM
SMILES: COc1ccc2[nH]c3c4[nH]c5ccc(OC)cc5c4c4c(c3c2c1)C(=O)NC4=O
target	technique	notes	baseline	remaining binding [%]
EPHB3 (Homo sapiens, UniProt P54753)	competitive binding panel	–	vehicle	85
EPHB2 (Homo sapiens, UniProt P29323)	competitive binding panel	–	vehicle	84
TGFBR1 (Homo sapiens, UniProt P36897)	competitive binding panel	–	vehicle	100
BRAF (Homo sapiens, UniProt P15056)	competitive binding panel	–	vehicle	86
TAOK2 (Homo sapiens, UniProt Q9UL54)	competitive binding panel	–	vehicle	96
MAPK14 (Homo sapiens, UniProt Q16539)	competitive binding	p38-alpha	–	87
MAP4K3 (Homo sapiens, UniProt Q8IVH8)	competitive binding panel	–	vehicle	73
PIK3CA (Homo sapiens, UniProt P42336, E545A)	competitive binding panel	–	vehicle	100
DDR1 (Homo sapiens, UniProt Q08345)	competitive binding panel	–	vehicle	77
CDKL3 (Homo sapiens, UniProt Q8IVW4)	competitive binding panel	–	vehicle	91
FLT3 (Homo sapiens, UniProt P36888)	competitive binding scan	autoinhibited form	–	53
